Published values of several laboratories.
Lines come from different studies, so protocols differ. Values joined by “and” are separate records of one study, mostly repeats; a detail may differ. ± marks the error that the study gave.
CALM1: CALM1 (Homo sapiens, UniProt P0DP23)
Tln1: Tln1 309-405 (Mus musculus, UniProt P26039)
T1: ATRX ADD domain 167-289 K251R/F284Y (Homo sapiens); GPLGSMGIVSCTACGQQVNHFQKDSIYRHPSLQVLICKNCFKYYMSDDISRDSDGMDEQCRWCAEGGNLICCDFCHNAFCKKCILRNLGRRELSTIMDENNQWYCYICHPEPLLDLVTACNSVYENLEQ
B1: Cacna1c 1647-1777 (Mus musculus, UniProt Q01815); sequence looked up; chain NALSLQAGLRTLHDIGPEIRRAISGDLTAEEELDKAMKEAVSAASEDDIFRRAGGLFGNHVTYYQSDSRGNFPQTFATQRPLHINKTGNNQADTESPSHEKLVDSTFTPSSYSSTGSNANINNANNTALGR
B2: BRAF 442-724 (Homo sapiens, UniProt P15056); sequence looked up; chain GRRDSSDDWEIPDGQITVGQRIGSGSFGTVYKGKWHGDVAVKMLNVTAPTPQQLQAFKNEVGVLRKTRHVNILLFMGYSTKPQLAIVTQWCEGSSLYHHLHIIETKFEMIKLIDIARQTAQGMDYLHAKSIIHRDLKSNNIFLHEDLTVKIGDFGLATVKSRWSGSHQFEQLSGSILWMAPEVIRMQDKNPYSFQSDVYAFGIVLYELMTGQLPYSNINNRDQIIFMVGRGYLSPDLSKVRSNCPKAMKRLMAECLKKKRDERPLFPQILASIELLARSLPKI
B3: sst2 catalytic domain 245-435 F403A (Schizosaccharomyces pombe, UniProt Q9P371); sequence looked up; chain AGTFKIHAYTEGGKPLRTIYLPKLLKKVFLDVVKPNTKKNLETCGILCGKLRQNAFFITHLVIPLQEATSDTCGTTDEASLFEFQDKHNLLTLGWIHTHPTQTCFMSSVDLHTHCSYQLMLPEAIAIVMAPSKNTSGIFRLLDPEGLQTIVKCRKPGLAHPHEGKVYTMVAQPGHVREINSKLQVVDLRVK
B4: RAP1A (Homo sapiens, UniProt P62834); sequence looked up; chain MREYKLVVLGSGGVGKSALTVQFVQGIFVEKYDPTIEDSYRKQVEVDCQQCMLEILDTAGTEQFTAMRDLYMKNGQGFALVYSITAQSTFNDLQDLREQILRVKDTEDVPMILVGNKCDLEDERVVGKEQGQNLARQWCNCAFLESSAKSKINVNEIFYDLVRQINRKTPVEKKKPKKKSCLLL
B5: TEPSIN (Homo sapiens, UniProt Q96N21); chain MAAAPPLRDRLSFLHRLPILLKGTSDDDVPCPGYLFEEIAKISHESPGSSQCLLEYLLSRLHSSSGHGKLKVLKILLYLCSHGSSFFLLILKRNSAFIQEAAAFAGPPDPLHGNSLYQKVRAAAQDLGSTLFSDTVLPLAPSQPLGTPPATGMGSQARPHSTLQGFGYSKEHGRTAVRHQPGQAGGGWDELDSGPSSQNSSQNSDLSRVSDSGSHSGSDSHSGASREPGDLAERVEVVALSDCQQELSLVRTVTRGPRAFLSREEAQHFIKACGLLNCEAVLQLLTCHLRGTSECTQLRALCAIASLGSSDLLPQEHILLRTRPWLQELSMGSPGPVTNKATKILRHFEASCGQLSPARGTSAEPGPTAALPGPSDLLTDAVPLPGSQVFLQPLSSTPVSSRSPAPSSGMPSSPVPTPPPDASPIPAPGDPSEAEARLAESRRWRPERIPGGTDSPKRGPSSCAWSRDSLFAGMELVACPRLVGAGAAAGESCPDAPRAPQTSSQRTAAKEPPGSEPSAFAFLNA
B6: CFH domains 1108-1231 W1183R (Homo sapiens, UniProt P08603); sequence looked up; chain KCGPPPPIDNGDITSFPLSVYAPASSVEYQCQNLYQLEGNKRITCRNGQWSEPPKCLHPCVISREIMENYNIALRRTAKQKLYSRTGESVEFVCKRGYRLSSRSHTLRTTCWDGKLEYPTCAKR
B7: HCK 78-138 (Homo sapiens, UniProt P08631); chain SEDIIVVALYDYEAIHHEDLSFQKGDQMVVLEESGEWWKARSLATRKEGYIPSNYVARVDS
B8: PUX3 (Arabidopsis thaliana, UniProt Q9SUG6); chain MSSKDKKLSKPTSGRTGGIRTLSDLNRRSEPDSDSDSDGPQEYFTGGEKSGMLVQDPTKEPKHDDVDEIFNQARQLGAVEGPLEHPSSSRSFTGTGRLLSGESVPTALQQPEPVIHNIIFWSNGFTVDDGPLRKLDDPENASFLDSIRKSECPKELEPVDKRAPVHVNLMRRDEKCPEKEKLKVSFQGVGRTLGGASSSTASSQSNLTDVAAVQSPLQSLVVDETLPSTSIQLRLADGTRMVAKFNNHHTVNDIRGFIEFSRPGNPNNYTLQVMGFPPKPLTDPSQTIEQAGLASSVVIQKF
B9: Flrt3 29-359 (Mus musculus, UniProt Q8BGT1); chain KSCPSVCRCDAGFIYCNDRSLTSIPVGIPEDATTLYLQNNQINNVGIPSDLKNLLKVQRIYLYHNSLDEFPTNLPKYVKELHLQENNIRTITYDSLSKIPYLEELHLDDNSVSAVSIEEGAFRDSNYLRLLFLSRNHLSTIPGGLPRTIEELRLDDNRISTISSPSLHGLTSLKRLVLDGNLLNNHGLGDKVFFNLVNLTELSLVRNSLTAAPVNLPGTSLRKLYLQDNHINRVPPNAFSYLRQLYRLDMSNNNLSNLPQGIFDDLDNITQLILRNNPWYCGCKMKWVRDWLQSLPVKVNVRGLMCQAPEKVRGMAIKDLSAELFDCKDSG

KDM4A fragment (Homo sapiens) — Kd (H4C1 around K20, K20me3, 5-FAM label; fluorescence polarisation): 4000 ± 1100 nM
B1 (Cacna1c 1647-1777) — Kd (Jph2 1-440 S165L (Mus musculus, UniProt Q9ET78); ITC): 11700 nM
WHRSYYTWN (TR3 peptide) — Kd (CD274 19-238 (Homo sapiens, UniProt Q9NZQ7); SPR; peptide): 298 nM
ARTKQTARKS (H3C1 1-10; R2me2a) — Kd (T1, ATRX ADD domain 167-289 K251R/F284Y (Homo sapiens); ITC; peptide): 7690 nM
B2 (BRAF 442-724) — Kd (MAP2K1 (Homo sapiens, UniProt Q02750); BLI): 481 ± 37.7 nM
B3 — Kd (UBB mature (UniProt P0CG47); ITC): 6200 ± 500 nM
CTNNA1 (Homo sapiens, UniProt P35221) — Kd (CDH1/CTNNB1 ECT-bound 731-882 (Homo sapiens); BLI): 11.8 ± 2.8 nM
FNIVGTTYPINC (GABRA3 peptide 368-379) — Kd (Gphn (Rattus norvegicus, UniProt Q03555); competition titration, magnetic tweezers; peptide): 39400 nM
colistin — MIC (Morganella morganii; broth microdilution; clinical isolate RKI-No 599/16): > 64 µg/mL
PSPHGTRRHLPSPP (SOS1 proline-rich peptide, 1264-1277) — Kd (GRB2 156-215 (Homo sapiens, UniProt P62993); NMR titration; peptide): 400000 nM
ACYGPYYVLCSG (MP4.3; one disulfide ring) — Kd (CA2 (Bos taurus, UniProt P00921); flow cytometry; peptide): 369 nM
SCN2A fragment Q1913A (Homo sapiens) (sequence not shown) — Kd (CALM1; fluorescence titration; pH 7.4, 22 °C, added: calcium): 75 nM
INVRKRNVESGEEELASKLD (PGAM5 71-90; N-acetyl, C-terminal amide) — Kd (KEAP1 321-609 (Homo sapiens, UniProt Q14145); ITC; peptide): 180 nM
Ybx1 (Mus musculus, UniProt P62960) — Kd (Purb P223L (Mus musculus); ELISA): 24.8 ± 4.4 nM
GSYPRPRPRPRPRPRPRPRPRPRPRPRPRPRPRPRPRPRPRPRPRPRPR (poly-PR (PR)23) — Kd (NPM1 (Homo sapiens, UniProt P06748); fluorescence polarisation; peptide; apparent): 50.4 ± 7.5 nM
Lama1 fragment (Mus musculus) — Kd (DAG1 alpha-dystroglycan (Oryctolagus cuniculus, UniProt Q28685); ELISA): 34 nM
B4 (RAP1A) — Kd (PREX1 1-791 (Homo sapiens, UniProt Q8TCU6); fluorescence titration; added: mant-GTP 1 µM): 86000 ± 8000 nM
SCN2A fragment Y1919A (Homo sapiens) (sequence not shown) — Kd (CALM1; fluorescence titration; pH 7.4, 22 °C, added: calcium): 135 nM
NPDALPETLV — normalised SPR binding response (human SCRIB PDZ3-4 tandem (MBP fusion); surface plasmon resonance; peptide; concentration not given; higher = stronger binding): 8.3 normalised RU
KLLITIHDRKEFAKFEEERMRAKWDTANNPLYKEATSTFTNITYRGT (ITGB3 742-788 A735M (Homo sapiens, UniProt P05106); sequence looked up) — Kd (Tln1; NMR titration): 243000 nM
SPTBN2 actin-binding domain T62I (sequence not shown) — Kd (ACTA1 F-actin (Oryctolagus cuniculus, UniProt P68135); co-sedimentation): 2400 nM
KLLMIIHDRREFAKFEKEKMNAKWDTGNNPLYKSAVTTVVNPKYEGK (ITGB1 752-798 E779N/I782L (Homo sapiens, UniProt P05556-1); sequence looked up) — Kd (Tln1; NMR titration): 882000 nM
B5 (TEPSIN) — Kd (MAP1LC3B fragment (Homo sapiens); BLI): 1710 nM and 900 nM and 930 nM and 1180 nM
CDH2 EC3 (Homo sapiens) — Kd (FGB residues 15-66, dimer (Homo sapiens); ELISA): 71.3 nM
golimumab, partial deamidation, succinimide — Kd (TNF (Homo sapiens, UniProt P01375); SPR): 0.0034 nM
BRCA1 coiled-coil domain I1405V (Homo sapiens) — Kd (PALB2 1-56 (Homo sapiens, UniProt Q86YC2); ITC): 21000 nM
F2 thrombin S195A — Kd (PAR-1 residues 16-36; BLI): 5440 ± 1760 nM
PUX5 (Arabidopsis thaliana, UniProt Q7Y175) — Kd (CDC48A (Arabidopsis thaliana, UniProt P54609); ITC; 25 °C): 2500 ± 200 nM
B6 (CFH domains 1108-1231 W1183R) — Kd (C3 C3dg 955-1303 (Homo sapiens, UniProt P01024); SPR): 1900 ± 100 nM
GSGSEVLKKCCYSLHPIP (designed peptide) — Kd (ERBB2 23-652 (Homo sapiens, UniProt P04626); ELISA; peptide): 7600 ± 1500 nM
B7 (HCK 78-138) — Kd (PIK3R1 80-724 (Homo sapiens, UniProt P27986); ITC): 16800 ± 1400 nM
B8 (PUX3) — Kd (CDC48A 1-463 (Arabidopsis thaliana, UniProt P54609); BLI; 25 °C): 830 ± 100 nM
B9 (Flrt3 29-359) — Kd (Unc5D 31-382 (Rattus norvegicus, UniProt F1LW30); SPR): 2000 nM
